Experimental data collected from several papers.
Each line is one published result; not all experiments were run side by side. Several values in a cell are separate wells, animals, samples, runs or records.
Target: Serine/threonine-protein kinase D3 (PRKD3, Homo sapiens, UniProt O94806)
Residues used in one study (O94806 1-890): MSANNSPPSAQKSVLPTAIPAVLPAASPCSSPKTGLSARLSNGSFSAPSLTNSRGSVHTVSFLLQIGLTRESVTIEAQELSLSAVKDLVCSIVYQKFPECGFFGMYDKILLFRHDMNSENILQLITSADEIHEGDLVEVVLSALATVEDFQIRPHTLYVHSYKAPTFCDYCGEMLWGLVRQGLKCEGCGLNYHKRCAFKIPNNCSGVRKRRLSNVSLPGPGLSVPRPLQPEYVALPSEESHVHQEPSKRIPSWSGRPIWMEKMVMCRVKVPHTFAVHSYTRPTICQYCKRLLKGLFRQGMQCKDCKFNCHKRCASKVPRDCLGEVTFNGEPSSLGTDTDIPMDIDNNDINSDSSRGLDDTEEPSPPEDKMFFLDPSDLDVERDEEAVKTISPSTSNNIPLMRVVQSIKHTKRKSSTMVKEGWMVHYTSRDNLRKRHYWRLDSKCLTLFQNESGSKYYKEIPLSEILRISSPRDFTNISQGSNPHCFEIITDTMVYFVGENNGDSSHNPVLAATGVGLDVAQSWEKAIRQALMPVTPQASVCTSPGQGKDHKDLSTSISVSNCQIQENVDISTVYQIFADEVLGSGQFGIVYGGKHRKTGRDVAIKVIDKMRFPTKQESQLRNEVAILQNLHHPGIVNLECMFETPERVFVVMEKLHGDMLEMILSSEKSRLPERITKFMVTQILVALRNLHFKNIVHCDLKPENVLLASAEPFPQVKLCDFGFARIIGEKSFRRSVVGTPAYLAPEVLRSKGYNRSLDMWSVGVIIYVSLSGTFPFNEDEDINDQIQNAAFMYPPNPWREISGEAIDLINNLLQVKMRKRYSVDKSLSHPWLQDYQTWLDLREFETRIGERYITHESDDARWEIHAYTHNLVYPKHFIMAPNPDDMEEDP

| SMILES | assay | test system | conditions | scale | measurement | value |
| --- | --- | --- | --- | --- | --- | --- |
| Nc1ncc2c(n1)-c1c([nH]c3ccc(C4=CCOCC4)cc13)CCC2 | binding, competition with immobilised ligand | – | 1 µM | – | remaining binding | 63% |
| Cc1cccc(O[C@H]2CCC[C@@H](C(C)CNCc3ccncc3)C2)c1 (relative stereo) | enzyme activity, inhibitor | – | 1 µM | – | inhibition | 5% |
| Cc1ccc(-c2c(/C=C(\C#N)C(=O)NC(C)C)n(CCCO)c3ncnc(N)c23)cc1 | cell-free assay, competition with immobilised ligand | – | 1 µM | – | remaining binding | 94% |
| CNC(=O)C[C@H](Cc1ccc(C#N)cc1)NC(=O)c1cc(-c2ccc(CN[C@H](C)c3ccc(C)cc3)o2)ccc1Cl | enzyme activity, inhibitor | – | 1 µM | – | activity vs control | 104% |
| CCn1cc(C(=O)O)c(=O)c2c(N)c(F)c(NC3CCCCC3)cc21 | kinase activity | – | 0.1 µM, with: ATP at Km | – | inhibition | -2.6% |
| NC(=O)C[C@H]1CCc2sc3ncnc(O[C@H]4CC[C@H](N5CCOCC5)CC4)c3c21 | enzyme activity, inhibitor | – | 10 µM | – | inhibition | 9% |
| C=CC(=O)N1CCCC(n2c(=O)c3ncccc3n(Cc3ccc(Oc4ccccc4)cc3)c2=O)C1 (centres unmarked) | cell-free assay, competition with immobilised ligand | – | 1 µM | – | remaining binding | 86% |
| CN1CC[C@@H](COc2cnc(C#N)cc2-c2ccn3nc(NC(=O)C4CC4)cc3c2)C1 | enzyme activity, inhibitor | – | 1 µM | – | inhibition | -7% |
| C=CC(=O)Nc1cccc(-c2cnc3[nH]cc(C(=O)NC(C)(C)C)c3n2)c1 | kinase activity | – | 0.1 µM | – | inhibition | 10% and 12% |
| C=CC(=O)Nc1cc(-c2nn(C3CCN(CCNC(=O)[C@H](C)CCC45CC6CC(CC(C6)C4)C5)CC3)c3ncnc(N)c23)ccc1Oc1ccccc1 | inhibitor, KiNativ profiling | biochemical | 2 µM | – | inhibition | 8.2% |
| C=CC(=O)N1CCc2ccc(-n3c(=O)ccc4cnc5ccc(-c6cnn(C)c6)cc5c43)cc21 | KINOMEscan | – | 1 µM | reference: DMSO control | remaining binding | 100% |
| CNC(=O)C1CCN(c2cc(C)c(F)cc2NC(=O)c2ccc(-c3cc(O)ccc3C)c(C)c2)CC1 | binding, competition with immobilised ligand | – | 1 µM | – | remaining binding | 92% |
| COc1cc(Nc2nc(C)cc(-c3cnn4nc(OC)ccc34)n2)cc(C(F)(F)F)c1 | inhibitor | – | 1 µM | reference: control | remaining activity | 100% |
| Cc1cnc2nc1Nc1cccc(c1)COC/C=C/COCc1cc(ccc1OCCN1CCOCC1)N2 | binding | – | 0.1 µM | – | remaining binding | 85% |

A few entries again:
| SMILES | assay | test system | conditions | scale | measurement | value |
| --- | --- | --- | --- | --- | --- | --- |
| C=CC(=O)N1CCc2ccc(-n3c(=O)ccc4cnc5ccc(-c6cnn(C)c6)cc5c43)cc21 | KINOMEscan | – | 1 µM | reference: DMSO control | remaining binding | 100% |
